Published values pooled from the literature.
Parts stem from different laboratories: compare values within a part only.
Chain of UniProt Q09013 (whole entry, looked up): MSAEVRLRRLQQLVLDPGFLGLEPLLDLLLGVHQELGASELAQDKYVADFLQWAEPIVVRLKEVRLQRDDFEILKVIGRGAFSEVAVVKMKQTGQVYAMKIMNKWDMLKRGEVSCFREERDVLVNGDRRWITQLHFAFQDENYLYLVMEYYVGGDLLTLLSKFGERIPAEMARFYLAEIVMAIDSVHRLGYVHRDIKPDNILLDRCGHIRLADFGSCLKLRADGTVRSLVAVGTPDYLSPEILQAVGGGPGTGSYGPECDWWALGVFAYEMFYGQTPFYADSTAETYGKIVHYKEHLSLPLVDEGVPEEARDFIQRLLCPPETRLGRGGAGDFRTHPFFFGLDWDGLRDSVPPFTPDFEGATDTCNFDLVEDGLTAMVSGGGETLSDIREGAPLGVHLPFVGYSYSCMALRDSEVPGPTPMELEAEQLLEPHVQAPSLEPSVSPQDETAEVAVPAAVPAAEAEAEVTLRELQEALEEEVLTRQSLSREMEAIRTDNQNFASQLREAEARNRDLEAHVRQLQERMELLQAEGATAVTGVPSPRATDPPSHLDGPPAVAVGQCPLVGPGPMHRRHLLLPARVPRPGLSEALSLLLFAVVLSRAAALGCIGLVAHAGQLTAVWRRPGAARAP
Chain of UniProt Q9BYP7 (whole entry, looked up): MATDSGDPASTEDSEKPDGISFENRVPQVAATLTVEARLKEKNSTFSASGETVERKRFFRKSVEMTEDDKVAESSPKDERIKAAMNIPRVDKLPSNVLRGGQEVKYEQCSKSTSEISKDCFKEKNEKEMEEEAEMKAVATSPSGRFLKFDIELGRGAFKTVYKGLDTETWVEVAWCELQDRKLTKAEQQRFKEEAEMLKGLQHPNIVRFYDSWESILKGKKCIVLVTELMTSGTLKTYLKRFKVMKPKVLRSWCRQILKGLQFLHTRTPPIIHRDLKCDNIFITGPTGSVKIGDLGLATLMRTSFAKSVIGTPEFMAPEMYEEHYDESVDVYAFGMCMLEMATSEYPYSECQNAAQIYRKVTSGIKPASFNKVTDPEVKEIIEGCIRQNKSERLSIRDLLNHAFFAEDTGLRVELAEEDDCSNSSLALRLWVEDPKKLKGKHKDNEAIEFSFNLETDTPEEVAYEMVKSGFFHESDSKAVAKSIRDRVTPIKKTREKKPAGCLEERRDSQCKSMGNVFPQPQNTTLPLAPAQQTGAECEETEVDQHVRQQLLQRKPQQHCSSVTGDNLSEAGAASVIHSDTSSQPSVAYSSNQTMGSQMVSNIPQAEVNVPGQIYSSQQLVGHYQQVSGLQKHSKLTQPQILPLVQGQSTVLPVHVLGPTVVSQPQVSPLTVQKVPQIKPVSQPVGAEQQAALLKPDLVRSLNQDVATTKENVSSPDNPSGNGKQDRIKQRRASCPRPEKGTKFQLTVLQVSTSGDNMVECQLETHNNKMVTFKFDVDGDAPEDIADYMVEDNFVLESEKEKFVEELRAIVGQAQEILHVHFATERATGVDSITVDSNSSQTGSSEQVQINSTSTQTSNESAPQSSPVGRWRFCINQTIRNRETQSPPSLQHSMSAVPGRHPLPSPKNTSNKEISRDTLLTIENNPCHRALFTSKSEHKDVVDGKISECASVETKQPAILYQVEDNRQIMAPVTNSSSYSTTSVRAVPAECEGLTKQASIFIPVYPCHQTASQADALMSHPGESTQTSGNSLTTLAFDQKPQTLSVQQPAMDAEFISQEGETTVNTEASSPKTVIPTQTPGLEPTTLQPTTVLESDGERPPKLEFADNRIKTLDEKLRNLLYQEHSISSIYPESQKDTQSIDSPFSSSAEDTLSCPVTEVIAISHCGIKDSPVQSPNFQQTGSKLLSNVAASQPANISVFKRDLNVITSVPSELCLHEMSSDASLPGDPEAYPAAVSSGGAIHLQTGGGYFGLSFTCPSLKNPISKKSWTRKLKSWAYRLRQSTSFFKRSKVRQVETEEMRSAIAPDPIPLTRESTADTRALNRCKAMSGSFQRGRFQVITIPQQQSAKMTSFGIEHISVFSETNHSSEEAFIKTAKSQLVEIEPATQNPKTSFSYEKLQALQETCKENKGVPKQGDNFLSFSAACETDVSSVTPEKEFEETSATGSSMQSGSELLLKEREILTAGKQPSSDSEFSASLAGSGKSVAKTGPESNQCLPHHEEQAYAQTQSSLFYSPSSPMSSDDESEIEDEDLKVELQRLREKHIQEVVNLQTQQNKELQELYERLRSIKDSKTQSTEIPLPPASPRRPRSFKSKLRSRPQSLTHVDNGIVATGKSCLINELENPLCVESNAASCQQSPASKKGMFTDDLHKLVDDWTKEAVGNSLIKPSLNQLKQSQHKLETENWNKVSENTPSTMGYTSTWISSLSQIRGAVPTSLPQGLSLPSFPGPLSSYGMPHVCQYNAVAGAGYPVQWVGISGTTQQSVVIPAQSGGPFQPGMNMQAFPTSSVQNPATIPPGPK
Chain of UniProt Q9Y6R4 (whole entry, looked up): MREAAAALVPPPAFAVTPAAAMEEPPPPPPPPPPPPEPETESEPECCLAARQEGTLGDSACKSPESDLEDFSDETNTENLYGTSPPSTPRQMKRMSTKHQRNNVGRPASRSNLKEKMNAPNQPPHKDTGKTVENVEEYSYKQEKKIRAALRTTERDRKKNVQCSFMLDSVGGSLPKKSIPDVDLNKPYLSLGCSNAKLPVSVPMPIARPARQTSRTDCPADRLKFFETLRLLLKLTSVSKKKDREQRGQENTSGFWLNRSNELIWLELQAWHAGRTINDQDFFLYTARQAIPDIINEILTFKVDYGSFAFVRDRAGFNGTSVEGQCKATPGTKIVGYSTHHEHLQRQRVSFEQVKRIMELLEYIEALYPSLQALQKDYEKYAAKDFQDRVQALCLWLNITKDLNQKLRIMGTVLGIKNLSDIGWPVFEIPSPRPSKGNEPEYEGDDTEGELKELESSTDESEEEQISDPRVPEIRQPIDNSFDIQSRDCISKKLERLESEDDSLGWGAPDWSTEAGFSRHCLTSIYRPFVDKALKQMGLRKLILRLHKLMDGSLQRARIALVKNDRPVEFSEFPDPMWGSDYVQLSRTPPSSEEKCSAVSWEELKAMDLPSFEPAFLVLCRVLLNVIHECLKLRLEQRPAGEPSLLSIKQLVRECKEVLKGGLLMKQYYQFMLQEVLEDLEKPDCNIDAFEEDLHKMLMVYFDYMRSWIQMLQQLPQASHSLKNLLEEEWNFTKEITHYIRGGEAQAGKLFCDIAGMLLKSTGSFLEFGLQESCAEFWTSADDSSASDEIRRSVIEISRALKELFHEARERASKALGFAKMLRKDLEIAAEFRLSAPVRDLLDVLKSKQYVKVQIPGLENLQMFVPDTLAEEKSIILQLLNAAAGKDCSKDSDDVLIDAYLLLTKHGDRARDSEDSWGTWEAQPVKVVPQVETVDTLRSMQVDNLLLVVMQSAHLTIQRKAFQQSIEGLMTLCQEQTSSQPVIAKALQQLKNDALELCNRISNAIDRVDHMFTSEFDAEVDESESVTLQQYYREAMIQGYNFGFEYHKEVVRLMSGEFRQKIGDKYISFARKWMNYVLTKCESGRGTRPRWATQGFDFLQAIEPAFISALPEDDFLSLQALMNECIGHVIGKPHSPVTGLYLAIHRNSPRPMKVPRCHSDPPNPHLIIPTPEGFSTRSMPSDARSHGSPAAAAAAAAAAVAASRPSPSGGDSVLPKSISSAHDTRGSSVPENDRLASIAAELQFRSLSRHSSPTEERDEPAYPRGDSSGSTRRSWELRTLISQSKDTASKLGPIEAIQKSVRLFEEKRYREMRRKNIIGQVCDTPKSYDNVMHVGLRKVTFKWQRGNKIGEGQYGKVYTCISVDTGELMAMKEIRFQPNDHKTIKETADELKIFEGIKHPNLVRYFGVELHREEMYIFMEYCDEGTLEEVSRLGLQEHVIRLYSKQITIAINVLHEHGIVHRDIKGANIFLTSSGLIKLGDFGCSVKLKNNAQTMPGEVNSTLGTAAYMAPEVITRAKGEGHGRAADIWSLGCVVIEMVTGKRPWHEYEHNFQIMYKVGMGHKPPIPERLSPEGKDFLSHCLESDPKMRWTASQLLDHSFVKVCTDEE

Series 1 — read-out: AlphaScreen signal; technique: AlphaScreen counter screen; medium: His6 peptide without bromodomain; concentration: 50 µM; setting: assay interference check
Compound | inhibition [%]
N#CC(=Cc1ccc(F)cc1)c1nc2ccccc2s1 | 11.1
COc1ccccc1NC(=O)N=c1[nH]nc(C=Cc2ccccc2)s1 | 14.2
Oc1cccc(-c2nc(N3CCOCC3)c3sccc3n2)c1 | 54.6
Nc1nc(SCc2c(Cl)cccc2Cl)c2nc[nH]c2n1 | 35.4
C[C@]1(O)C[C@@H](c2nc(-c3ccc4ccc(-c5ccccc5)nc4c3)c3c(N)nccn32)C1 | 41.5
O=c1[nH]cnc2ccc(NC(=S)Nc3cccc4ccccc34)cc12 | 20.3
Cc1[nH]nc(-c2ccc(O)c(C)c2O)c1Oc1ccc(Br)cc1 | 35.7
CCOC(=O)CCNc1ccc(Nc2ccc(C)cc2)c2c1C(=O)c1ccccc1C2=O | 90.5
COc1cc2ncnc(Nc3cccc(Br)c3)c2cc1OC | 20.8
COc1ccc(-c2[nH]c3ncccc3c2CN2CCCC2)cc1 | -1.65
Nc1nc(Nc2ccc(F)cc2)sc1C(=O)c1ccccc1 | 19.4
COc1cc2c(Oc3ccc(NC(=O)C4(C(=O)Nc5ccc(F)cc5)CC4)cc3F)ccnc2cc1OCCCN1CCOCC1 | 49.4
N#CC(=Cc1ccncc1)c1nc(-c2ccccc2)cs1 | 16.8

Series 2 — host: human; medium: microsomes or S9; concentration: 2 µM; time: 0.5 h
SMILES | remaining compound [%]
COc1ccc2c(c1)CCC(N1CCCCC1)C2O (stereo not drawn) | 37.5
O=S(=O)(Nc1cc(-c2cccs2)n[nH]1)c1c[nH]c2ncccc12 | 22.9
CCN(CC)S(=O)(=O)c1cc(C(=O)N2CCN(Cc3cnn(C)c3)CC2)c(Cl)cc1Cl | 2.71
CC1=C(COc2ccc3ccc(=O)oc3c2)[C@@]2(C)CCC(=O)C(C)(C)[C@@H]2CC1 | 0.214
COCc1nn2c(nnc3c(=O)n(NC(C)=O)ccc32)c1-c1ccc(F)cc1 | > 100
O=C(O)C1C(c2ccccc2)C(C(=O)O)C1c1ccccc1 (stereo not drawn) | 91.8
COc1ccc(-c2cc(-c3nc4c5ccccc5ncn4n3)n[nH]2)cc1 | 12.3
COc1cc(OC)c(OC)cc1/C=N/N=C1\NC(=O)C(CC(=O)O)S1 (stereo not drawn) | 55.4
COc1ccc(C(=O)N2C[C@@H](NC(=O)N(C)C)[C@H](C(C)C)C2)c(OC)n1 | > 100
Fc1cccc(F)c1COCC1CON=C(c2cccs2)O1 (stereo not drawn) | 51.5
N#Cc1c[nH]c(C(=O)N2CC(=O)NC3CCCCC32)c1 (stereo not drawn) | 71
CCCN1CCc2[nH]cnc2C12CCN(C(=O)[C@@H]1C[C@@H](O)CN1)CC2 | 80.2
CC(C)(C)C1CCc2c(sc3ncnc(O)c23)C1 (stereo not drawn) | > 100

Series 3 — technique: competition with immobilised ligand; concentration: 1 µM
Structure (SMILES): Cc1c(NC(=O)c2cc(C(N)=O)nc3cc(F)ccc23)c(C(F)(F)F)nn1Cc1ccc(C#N)cc1
target | assay | remaining binding [%]
Ephrin type-A receptor 8 (EPHA8, Homo sapiens, UniProt P29322) | cell-free assay | 91
Phosphatidylinositol 4,5-bisphosphate 3-kinase catalytic subunit alpha isoform (PIK3CA, Homo sapiens, UniProt P42336, Q546K) | cell-free assay | 85
Serine/threonine-protein kinase haspin (HASPIN, Homo sapiens, UniProt Q8TF76) | cell-free assay | 67
Receptor-type tyrosine-protein kinase FLT3, autoinhibited (FLT3, Homo sapiens, UniProt P36888) | cell-free assay | 83
Dual specificity tyrosine-phosphorylation-regulated kinase 1B (DYRK1B, Homo sapiens, UniProt Q9Y463) | cell-free assay | 87
Phosphatidylinositol 5-phosphate 4-kinase type-2 gamma (PIP4K2C, Homo sapiens, UniProt Q8TBX8) | binding | 100
Epidermal growth factor receptor (EGFR, Homo sapiens, UniProt P00533, L858R) | cell-free assay | 97
Mitogen-activated protein kinase kinase kinase 4 (MAP3K4, Homo sapiens, UniProt Q9Y6R4) | cell-free assay | 97
Cyclin-dependent kinase 13 (CDK13, Homo sapiens, UniProt Q14004) | cell-free assay | 87
Casein kinase I isoform alpha-like (CSNK1A1L, Homo sapiens, UniProt Q8N752) | cell-free assay | 100
Wee1-like protein kinase (WEE1, Homo sapiens, UniProt P30291) | cell-free assay | 94
Ribosomal protein S6 kinase alpha-2, N-terminal kinase domain (RPS6KA2, Homo sapiens, UniProt Q15349) | cell-free assay | 85
Epidermal growth factor receptor (EGFR, Homo sapiens, UniProt P00533, del746-750) | cell-free assay | 59
Serine/threonine-protein kinase WNK3 (WNK3, Homo sapiens, UniProt Q9BYP7) | cell-free assay | 77
Epidermal growth factor receptor (EGFR, Homo sapiens, UniProt P00533, del747-750/T751S) | cell-free assay | 83
Serine/threonine-protein kinase 16 (STK16, Homo sapiens, UniProt O75716) | cell-free assay | 100
Myotonin-protein kinase (DMPK, Homo sapiens, UniProt Q09013) | cell-free assay | 92
Serine/threonine-protein kinase D3 (PRKD3, Homo sapiens, UniProt O94806) | cell-free assay | 74

Series 4 — read-out: enzyme activity; mode: inhibitor; concentration: 0.5 µM; relative to: control
Target: Ephrin type-A receptor 1 (EPHA1, Homo sapiens, UniProt P21709)
Chain of UniProt P21709 (whole entry, looked up): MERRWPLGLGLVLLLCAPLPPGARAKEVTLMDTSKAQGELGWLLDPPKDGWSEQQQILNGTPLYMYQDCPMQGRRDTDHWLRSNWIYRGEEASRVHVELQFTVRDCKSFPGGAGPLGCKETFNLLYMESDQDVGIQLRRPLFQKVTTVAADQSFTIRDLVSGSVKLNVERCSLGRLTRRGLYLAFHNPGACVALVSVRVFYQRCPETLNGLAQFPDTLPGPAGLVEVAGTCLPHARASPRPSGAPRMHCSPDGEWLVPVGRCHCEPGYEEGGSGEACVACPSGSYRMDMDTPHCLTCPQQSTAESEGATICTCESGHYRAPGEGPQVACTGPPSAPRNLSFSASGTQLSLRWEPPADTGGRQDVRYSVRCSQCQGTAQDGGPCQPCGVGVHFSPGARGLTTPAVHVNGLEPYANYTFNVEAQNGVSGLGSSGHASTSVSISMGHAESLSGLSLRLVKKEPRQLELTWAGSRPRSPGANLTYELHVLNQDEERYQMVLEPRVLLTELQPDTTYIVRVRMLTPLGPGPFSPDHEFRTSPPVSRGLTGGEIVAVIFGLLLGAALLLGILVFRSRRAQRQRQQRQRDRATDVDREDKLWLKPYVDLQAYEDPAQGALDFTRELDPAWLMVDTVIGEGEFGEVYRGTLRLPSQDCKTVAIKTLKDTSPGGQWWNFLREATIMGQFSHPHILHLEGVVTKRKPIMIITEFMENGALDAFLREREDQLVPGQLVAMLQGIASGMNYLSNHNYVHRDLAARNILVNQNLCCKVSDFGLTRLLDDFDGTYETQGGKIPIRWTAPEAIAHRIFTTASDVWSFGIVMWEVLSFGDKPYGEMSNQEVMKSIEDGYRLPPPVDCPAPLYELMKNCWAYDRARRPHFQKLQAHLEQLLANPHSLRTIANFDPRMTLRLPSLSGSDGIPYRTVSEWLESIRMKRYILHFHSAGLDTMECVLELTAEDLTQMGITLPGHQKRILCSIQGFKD
Compound | remaining activity [%]
N#CC(c1ccnc(NCCc2cccnc2)n1)c1nc2ccccc2s1 (stereo not drawn) | 95.5
O=Nc1c(-c2c(O)[nH]c3ccccc23)[nH]c2ccccc12 | 99.4
N#C/C(=C(/N)SC1C=CC=CC1)c1cccc(C(O)c2ccncc2)c1 (stereo not drawn) | 91.1
O=C1NC(=O)/C(=C/c2ccc3c(c2)OC(F)(F)O3)S1 | 90.2
O=C1c2ccccc2-c2nc3nnnn3nc21 | 73.1
CC(C)(C)c1nc2c3cc[nH]c(=O)c3c3cc(F)ccc3c2[nH]1 | 80.5
C[C@@H](N)[C@H]1CC[C@H](C(=O)Nc2ccncc2)CC1 | 102
O=C(c1ccccc1)c1ccc(N2CCOCC2)cc1O | 89.1
Clc1ccc(Nc2nnc(Cc3ccncc3)c3ccccc23)cc1 | 96
NC(=O)c1cccc(-c2cc(Nc3ccc(OC(F)(F)F)cc3)ncn2)c1 | 90.1
CCN(CC)CCCCN1c2ccccc2Oc2ccc(Cl)cc21 | 90.5
Nc1nc(Nc2ccc(S(N)(=O)=O)cc2)nn1C(=S)Nc1c(F)cccc1F | 37.4
CC(C)n1cnc2c(Nc3cccc(Cl)c3)nc(NCCO)nc21 | 94.1
NC(=O)c1ccc(-c2nc(-c3ccc4c(c3)OCCO4)c(-c3ccccn3)[nH]2)cc1 | 102
CC(C)N(CCC(=O)c1ccc2ccccc2c1)Cc1ccccc1 | 92.4
COc1cc2c(N3CCN(C(=O)Nc4ccc(OC(C)C)cc4)CC3)ncnc2cc1OCCCN1CCCCC1 | 96.1
c1cc(-c2cnn3cc(-c4ccc(OCCN5CCCCC5)cc4)cnc23)ccn1 | 31.4
FC(F)(F)c1ccc(/C=C/c2nc(COc3ccc(CCCCn4ccnn4)cc3)co2)cc1 | 97.2
O=C(O)/C=C/c1cc(Br)c(Br)c(Br)c1Br | 94.6
COc1cc2c(Nc3ccc(Br)cc3F)ncnc2cc1OCC1CCN(C)CC1 | 31.7
CNc1cc2c(Nc3cccc(Br)c3)ncnc2cn1 | 103
CCCCc1c(-c2ccc(O)cc2)[nH]c2nccnc12 | 68.8

Some of these lines once more (series 3):
target | assay | remaining binding [%]
Casein kinase I isoform alpha-like (CSNK1A1L, Homo sapiens, UniProt Q8N752) | cell-free assay | 100
Myotonin-protein kinase (DMPK, Homo sapiens, UniProt Q09013) | cell-free assay | 92
Serine/threonine-protein kinase WNK3 (WNK3, Homo sapiens, UniProt Q9BYP7) | cell-free assay | 77
Phosphatidylinositol 5-phosphate 4-kinase type-2 gamma (PIP4K2C, Homo sapiens, UniProt Q8TBX8) | binding | 100
